# Experimental data pooled from the literature.
# A part holds a random share of what one study measured.

# Set 1
# Target: Interferon regulatory factor 3, full length, phosphomimetic (IRF3, Homo sapiens, UniProt Q14653, residues 1-427, S386D/S396D/S398D/S402D/T404D/S405D)
# Technique: protein-binding microarray
# Molecule type: double-stranded DNA, one strand shown
# Medium: in vitro
# Concentration: 2540 nM top
# Setting: 60-bp whole probe
# Added: salmon DNA 0.4 mg/ml
# Baseline: random background probes
# Direction: higher = stronger binding
# Shared flanks, not repeated: GCCTAGCAC … GTCTTGATTCGCTTGACGCTGCTG
# Construct (chain): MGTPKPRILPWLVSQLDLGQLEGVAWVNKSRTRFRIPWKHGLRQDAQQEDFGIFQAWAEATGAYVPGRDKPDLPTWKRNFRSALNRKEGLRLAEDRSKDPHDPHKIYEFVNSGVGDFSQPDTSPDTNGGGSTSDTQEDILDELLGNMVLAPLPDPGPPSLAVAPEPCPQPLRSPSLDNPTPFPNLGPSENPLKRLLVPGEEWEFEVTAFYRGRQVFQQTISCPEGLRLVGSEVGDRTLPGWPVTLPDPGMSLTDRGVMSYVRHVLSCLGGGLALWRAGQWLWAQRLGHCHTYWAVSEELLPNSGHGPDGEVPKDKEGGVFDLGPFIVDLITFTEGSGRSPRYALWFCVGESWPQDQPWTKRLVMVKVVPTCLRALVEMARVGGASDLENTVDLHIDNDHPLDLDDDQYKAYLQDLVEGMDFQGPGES
Sequence,fitted relative affinity [z-score]
TTAGGACCGGGTTTCGGTTAGTGCTAG,2.92
GACGATTCCAGTTTGGAGACGTGCTAG,1.28
GACGGGCTGGACTTTCGGGACGTGCTA,-0.381
TCATGTCTGTTTCCTCTTACTGTGCTA,3.14
TACGGTATCGACTATCGGGACGTGCTA,0.532
GACTGTTTCGACACTGGGGACGTGCTA,2.62
GACGGTATCAGTTTCGGGACGTGCTAG,6.37
TCATCGATTTCTCTTTCCACTGTGCTA,2.28
TTAGGTCTCCGTCTCCTTTAGTGCTAG,2.11
ATTGCTTCCTCTTTCTCTGCGTGCTAG,1.82
TCAAAAATGGAAACTCGTACTGTGCTA,1.16
TTAGAACTGCGGACTGGATTAGTGCTA,-0.584
TTAGGTTTCCGTTTCCTTTAGTGCTAG,9.75
TTAGGTATGCTTATCCTTTAGTGCTAG,0.164
GATGATTTCAGTTTCGAGACGTGCTAG,4.44
TTAGATTTAAGTCTCGATTAGTGCTAG,-0.0604
AGATATCTGCACTCTCATGTGTGCTAG,0.251
TTAGATTTCAGTTCCGATTGGTGCTAG,3.52
GACCTCGTCTCTATCAAAAAGTGCTAG,0.376

# Set 2
# Target: RNA binding protein fox-1 homolog 2, RRM domain, GST-SBP tag (RBFOX2, Homo sapiens, UniProt O43251-10, residues 100-194)
# Technique: RNA Bind-n-Seq
# Molecule type: RNA
# Medium: in vitro
# Concentration: 365 nM
# Setting: natural RNA segment, single round, ends assumed
# Baseline: no-protein control
# Direction: higher = stronger binding
# Shared flanks, not repeated: GGGAGUUCUACAGUCCGACGAUC … UGGAAUUCUCGGGUGCCAA
# Target sequence (chain): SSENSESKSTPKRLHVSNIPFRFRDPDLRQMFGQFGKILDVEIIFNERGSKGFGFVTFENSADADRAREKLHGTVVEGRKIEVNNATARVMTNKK
Sequence,RBNS enrichment (R)
UAAAAUCUCUGAAGGAUCAUCUAUGUAUUCAAGUAAUUAUUUUUUAGAUAAUAACUGUCUUCUGGACUUGGUCUUGAAGUCUGUACAGAUUCAGCCUCAGUAGUAGCGAA,0.439
UUCUCUGCUGGGAAUCUACCCCUUUCUGGAGGAGAAACCCAUUCCACCUUAAUAACUUUAUUGUAAUGUGAGAAACACAAAACAAAGUUUACUUUUUUGACUCUAAGCUG,0.309
UCAUUAUUCACUUAUUAGCAAGAAGGUAGCAUUAUCAUAAAGGAUUAGAUGACUUAAGUUAGCUAUAGGUUCAAGACCUGGACUAAAGUAUUACUUGGAAAUUCUGAGUA,0.36
CAUUGGAUUGUUAGGGAUAGGCAGCAGGGCUGAGGCAAGGUAGGCCAACUGCACCCCUGUCGCCUGGAGGAGGGCCAGCUCGCUGCCCGAGCUCUGGCCUAGGGACCUUG,0.336
GUGAGAGCCUUUGCCUUUAGGGGUGUGUAUUCACAUAGUCCUCAGGGCUCAGUCUUUUGAGGUAAGUGGAAUUAGAGGGCCUUGCUUCUCUUCUUUCCAUUCUUCUUGCU,0.214
AAAAGGAGAUGCCCAAUAUUCAAAGCUGCUAAAUGUUCUCUUUGCCAUAAAGACUCCGUGUAACUGUGUGAACACUUGGGAUUUUUCUCCUCUGUCCCGAGGUCGUCGUC,0.45
CUGGUUUUUCCUUGCCCCUGUGUGAAAAUAGGUCCUAAAUGACUGACUUCACUGCAUUAGACCCUAUAGCUGGUCUCACAAGACACUUUGUGCCCAGCUGUCACUCACUC,0.707
UGGUGCCCGGAGAUUGGACGGCCUGAUGCUCCCUCCCCUGCCCUGGUCCAGGGAAGCUGGCCGAGGGUCCUGGCUCCUGAGGGGCAUCUGCCCCUCCCCCAACCCCCACC,0.581
AGCGCUGCCUGGAAACUUACCUUCCCACGGCCCAGGACGCAUUUCAUCGAAUGGAAACAUGUUCUUGCAUGUGGAUGUGUGUUUCCCAGGCAGAGGGUCCUGCGCCCCCC,1.13
UGACUUUGGGAAGGAAUUUGAGGACCUCCAAGAUGUAAUGUUGGGAAAAUGAAACCAUAAACUCUAAGUGGCUCUUAUAGGUGCUGAAGGGCUUAUUCUCAGCUAACCCU,0.5
CCCGCCACGAUCUUUCUGUGGUAGCGGCCAGCAGAAGACAUGGCCUGCUCCCCACUCCCUUUCCCCACUCCUUCUUUAUUGCACACAGGACACCAGUCUUCAAGGAAAGG,0.85
CCCAAAUAGCUAGGAUCACACUCCAAGUAUGGGCAGUGAUGGCGCUCUGGGGGCCACAGUGGGCUAUCUAGGCCCUCCCUCACCUGAGGCCCAGAGUGGACACAGCUGUU,0.234

# Set 3
# Target: Fragile X messenger ribonucleoprotein 1, C-terminal low-complexity region (Fmr1, Mus musculus, UniProt P35922)
# Technique: RNA Bind-n-Seq
# Molecule type: RNA
# Medium: in vitro
# Concentration: 200 nM
# Setting: whole 134-nt RNA, ends assumed
# Added: 150 mM KCl
# Baseline: input library
# Direction: higher = stronger binding
# Shared flanks, not repeated: GGGAGUUCUACAGUCCGACGAUC … UGGAAUUCUCGGGUGUCAAGG
Sequence,log2 enrichment
UGUCAGGAUUAUGAAGAAGCUGUGCUCUUGCUGUUAGAAGGAGCUGCCUGGGAAGAAGCUUUGAGGCUGGUAAGAAUCUUGUAAAUCCUC,-1.21
UCCUCAAGUCCUGUGCUACACAUCGUAUGUACCGAAUCGGAGGGGAGGAGGAAAGUAUUAUGUUACGCCGUUCGGAUCUGCACUUCCAGC,-0.45
UGUGCUACACAUCGUAUGUACCGAAUCGGGGAAAAAAAGGGGAAAAAAAGGGGAAAAAAAGGGAAAGUAUUAUGUUACGCCGUUCGGAUC,-0.112
AGUCCUGUGCUACACAUCGUAUGUACCGAAUCGGAAAAAGGGAAAAAGGGAAAAAGGGAAAGUAUUAUGUUACGCCGUUCGGAUCUGCAC,-0.686
GUCCUGUGCUACACAUCGUAUGUACCGAAUCGGGGCCCCCGGGCCCCCGGGGCCCCCGGAAAGUAUUAUGUUACGCCGUUCGGAUCUGCA,-0.893
AAGUCCUGUGCUACACAUCGUAUGUACCGAAUCGGUUUUUGGUUUGGUUUUUUUGGAAAGUAUUAUGUUACGCCGUUCGGAUCUGCACUU,-0.908
UAACUUUAGAGGAGGAUCUGAUGGAUAUGCCAGUGGACGUGGAUUUGGGGAUGGCUAUAAUGGGUAUGGAGGAGGACCUGGAGGUGGCAA,0.33
CUCAAGUCCUGUGCUACACAUCGUAUGUACCGAAUCGGGGUUGGGUUGGUUGGGAAAGUAUUAUGUUACGCCGUUCGGAUCUGCACUUCC,0.987
UCAAGUCCUGUGCUACACAUCGUAUGUACCGAAUCGGUGGAAAGGUUUUUUUGGAAAGUAUUAUGUUACGCCGUUCGGAUCUGCACUUCC,-0.629
GUCCUGUGCUACACAUCGUAUGUACCGAAUCGGUUUUUGGGGUUUUUGGUUUUUGGGGAAAGUAUUAUGUUACGCCGUUCGGAUCUGCAC,-0.374
UCAAGUCCUGUGCUACACAUCGUAUGUACCGAAUCGGAAAGGGAAAGGAAAGGGGAAAGUAUUAUGUUACGCCGUUCGGAUCUGCACUUC,-0.55
CCUGUGCUACACAUCGUAUGUACCGAAUCGGGGAAAAAGGGGAAAAAAAGGGGUUUGGGGAAAGUAUUAUGUUACGCCGUUCGGAUCUGC,0.238
UCCUGUGCUACACAUCGUAUGUACCGAAUCGGGUUUUUUUGGGUUUUUUUGGGAAAGGGAAAGUAUUAUGUUACGCCGUUCGGAUCUGCA,0.0776
UCAAGUCCUGUGCUACACAUCGUAUGUACCGAAUCGGGCCCGGCCCGGCCCGGGAAAGUAUUAUGUUACGCCGUUCGGAUCUGCACUUCC,-0.503

# Set 4
# Target: Prothrombin, mature alpha-thrombin (F2, Homo sapiens, UniProt P00734)
# Technique: aptamer microarray, sandwich
# Molecule type: DNA with 2'F-ANA
# Medium: in vitro
# Concentration: 200 nM
# Setting: whole 15-mer aptamer, many near background
# Added: Cy3 exosite-II aptamer, 400 nM
# Direction: higher = stronger binding
# Sequence: GGTTGGTGTGGTTGG
Modification,mean fluorescence intensity
2'F-ANA at 3 4 6 7 8 12 13 15,674 a.u.
2'F-ANA at 2 3 4 6 7 8 9 12 14,296 a.u.
2'F-ANA at 1 2 3 6 8 9 11,203 a.u.
2'F-ANA at 2 3 4 7 8 9 10 12 14,184 a.u.
2'F-ANA at 1 3 4 5 6 7 11 13 14,51.9 a.u.
2'F-ANA at 1 2 7 8 10 13 14 15,46.5 a.u.
2'F-ANA at 2 4 6 7 8 10 13 15,69.9 a.u.
2'F-ANA at 3 5 6 8 9 10 12 14 15,70.1 a.u.
2'F-ANA at 2 3 5 7 8 11 14,56.9 a.u.
2'F-ANA at 2 3 5 6 8 9 10 15,52.8 a.u.
2'F-ANA at 1 4 5 6 8 9 10 11 12,52.7 a.u.
2'F-ANA at 2 6 7 8 12 15,734 a.u.
2'F-ANA at 2 7 10 11 14 15,87.3 a.u.
2'F-ANA at 3 4 5 6 7 10 11 12,62.5 a.u.
2'F-ANA at 1 2 4 6 8,133 a.u.
2'F-ANA at 1 4 6 7 8 11 12 13 14 15,98.9 a.u.
2'F-ANA at 6 7 12,842 a.u.
2'F-ANA at 2 6 7 8 9 11 12 14,147 a.u.

# For quick reference, copied from above (set 4):
Modification,mean fluorescence intensity
2'F-ANA at 1 4 6 7 8 11 12 13 14 15,98.9 a.u.
2'F-ANA at 2 3 5 6 8 9 10 15,52.8 a.u.
2'F-ANA at 2 4 6 7 8 10 13 15,69.9 a.u.
2'F-ANA at 1 2 7 8 10 13 14 15,46.5 a.u.
2'F-ANA at 1 2 4 6 8,133 a.u.
2'F-ANA at 6 7 12,842 a.u.
2'F-ANA at 3 4 5 6 7 10 11 12,62.5 a.u.
2'F-ANA at 2 3 4 6 7 8 9 12 14,296 a.u.
2'F-ANA at 2 3 4 7 8 9 10 12 14,184 a.u.
2'F-ANA at 2 6 7 8 12 15,734 a.u.
